{"data": "Results from different studies", "note": "A part holds a random share of what one study measured. Substitutions count along the parent as printed."}
{"data": "Sample 1", "target": "Ras GTPase-activating protein-binding protein 1, full length (G3BP1, Homo sapiens, UniProt Q13283)", "method": "RNA Bind-n-Seq", "form": "RNA", "sample": "in vitro", "tested at": "200 nM", "notes": "whole 134-nt RNA, ends assumed", "added": "150 mM KCl", "baseline": "input library", "direction": "higher = stronger binding", "all sequences stand within": "GGGAGUUCUACAGUCCGACGAUC … UGGAAUUCUCGGGUGUCAAGG", "sequence of UniProt Q13283 (whole entry, looked up)": "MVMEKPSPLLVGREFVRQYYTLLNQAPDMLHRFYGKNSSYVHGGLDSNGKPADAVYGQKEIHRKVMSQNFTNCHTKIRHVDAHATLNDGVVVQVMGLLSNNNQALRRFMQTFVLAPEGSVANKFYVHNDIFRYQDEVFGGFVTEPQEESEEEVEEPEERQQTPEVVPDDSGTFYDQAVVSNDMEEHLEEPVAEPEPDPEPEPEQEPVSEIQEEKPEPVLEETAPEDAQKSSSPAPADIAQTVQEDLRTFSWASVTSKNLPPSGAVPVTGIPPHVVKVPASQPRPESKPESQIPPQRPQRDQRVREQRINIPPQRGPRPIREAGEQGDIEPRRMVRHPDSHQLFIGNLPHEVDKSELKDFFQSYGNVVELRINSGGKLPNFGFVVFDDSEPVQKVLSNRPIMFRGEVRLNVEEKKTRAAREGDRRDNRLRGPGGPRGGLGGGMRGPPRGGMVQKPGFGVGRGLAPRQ"}
{"Sequence": "CAAGUCCUGUGCUACACAUCGUAUGUACCGAAUCGGGAAAAAGGGAGGGUUUGGGAAAGUAUUAUGUUACGCCGUUCGGAUCUGCACUUC", "log2 enrichment": 0.639}
{"Sequence": "AAGUCCUGUGCUACACAUCGUAUGUACCGAAUCGGAGGUUUUUUUGGUUUUUUUGGAAAGUAUUAUGUUACGCCGUUCGGAUCUGCACUU", "log2 enrichment": -1.37}
{"Sequence": "AAGUCCUGUGCUACACAUCGUAUGUACCGAAUCGGUUUUGGUUUUGGGGUUUUGGGAAAGUAUUAUGUUACGCCGUUCGGAUCUGCACUU", "log2 enrichment": -1.01}
{"Sequence": "ACAGAGGGUUUGGUGGACGUUAUUCUCUAUCAUCAACCCGAUGACAAAAAGAAGAAUCGGGGGUUCUGCUUCCUUGAAUAUGAGGAUCAC", "log2 enrichment": -1.29}
{"Sequence": "UCCCAGCCGAGGACGUCGGAUGUCAUCGUCCUUGCUGCUUUGCCACCCCAUUCCCGUCAAUAAAGUGGUUUGAACCCAACCCUGGUGUCG", "log2 enrichment": -0.911}
{"Sequence": "CAAGUCCUGUGCUACACAUCGUAUGUACCGAAUCGGUUUUUUUGGUUUGGUUUGGAAAGUAUUAUGUUACGCCGUUCGGAUCUGCACUUC", "log2 enrichment": -0.956}
{"Sequence": "UCAAGUCCUGUGCUACACAUCGUAUGUACCGAAUCGGGGAAAGGAAAGGAAAGGAAAGUAUUAUGUUACGCCGUUCGGAUCUGCACUUCC", "log2 enrichment": -0.861}
{"Sequence": "GUCCUGUGCUACACAUCGUAUGUACCGAAUCGGGAAAAAGGGAAAAAGGGGAAAAAGGAAAGUAUUAUGUUACGCCGUUCGGAUCUGCAC", "log2 enrichment": -0.506}
{"data": "Sample 2", "target": "CCND1, cyclin fold, Cln2 fusion (human)", "method": "yeast growth competition, sequencing", "sample": "yeast", "notes": "strong parent motif", "baseline": "not given", "direction": "higher = stronger binding", "parent": "RBL2 docking peptide (human); STTRRRLFVENDS; partner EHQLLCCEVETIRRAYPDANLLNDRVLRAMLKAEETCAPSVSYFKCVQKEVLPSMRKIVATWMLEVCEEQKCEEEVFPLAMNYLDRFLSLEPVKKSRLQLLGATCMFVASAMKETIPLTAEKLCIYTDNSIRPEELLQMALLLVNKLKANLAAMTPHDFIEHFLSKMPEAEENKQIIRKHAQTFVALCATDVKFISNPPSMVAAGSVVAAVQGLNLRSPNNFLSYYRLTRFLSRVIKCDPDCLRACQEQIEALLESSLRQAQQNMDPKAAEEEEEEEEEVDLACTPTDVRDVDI"}
{"Substitution": "STTRTRLFVENDS [R5T]", "normalised enrichment score": 0.391}
{"Substitution": "STTRERLFVENDS [R5E]", "normalised enrichment score": 0.0517}
{"Substitution": "STTARRLFVENDS [R4A]", "normalised enrichment score": 2.04}
{"Substitution": "STTRSRLFVENDS [R5S]", "normalised enrichment score": -0.294}
{"Substitution": "SCTRRRLFVENDS [T2C]", "normalised enrichment score": 1.14}
{"Substitution": "STTRLRLFVENDS [R5L]", "normalised enrichment score": 0.748}
{"Substitution": "STTRRRLFDENDS [V9D]", "normalised enrichment score": 0.921}
{"Substitution": "STTRRRDFVENDS [L7D]", "normalised enrichment score": 0.515}
{"Substitution": "STTRRRLFNENDS [V9N]", "normalised enrichment score": 1.65}
{"Substitution": "STTRRRLFVWNDS [E10W]", "normalised enrichment score": 0.0439}
{"Substitution": "STTRRRLFGENDS [V9G]", "normalised enrichment score": 0.24}
{"Substitution": "VTTRRRLFVENDS [S1V]", "normalised enrichment score": 0.412}
{"Substitution": "STTRIRLFVENDS [R5I]", "normalised enrichment score": 0.378}
{"Substitution": "STTRRRLFVFNDS [E10F]", "normalised enrichment score": 0.425}
{"Substitution": "STTRGRLFVENDS [R5G]", "normalised enrichment score": 0.0473}
{"Substitution": "STTRRRLFVENDL [S13L]", "normalised enrichment score": 0.64}
{"Substitution": "STTRRRLFVEFDS [N11F]", "normalised enrichment score": 0.753}
{"Substitution": "STTRRRVFVENDS [L7V]", "normalised enrichment score": -0.297}
{"data": "Sample 3", "target": "Protein C-ets-1 (ETS1, Homo sapiens, UniProt P14921, residues 1-441, Y397A, full length assumed)", "method": "protein-binding microarray", "form": "double-stranded DNA, one strand shown", "sample": "in vitro", "tested at": "not given", "notes": "k-mer, scored over probes, only values ≥0.25", "direction": "higher = stronger binding", "Residues (chain)": "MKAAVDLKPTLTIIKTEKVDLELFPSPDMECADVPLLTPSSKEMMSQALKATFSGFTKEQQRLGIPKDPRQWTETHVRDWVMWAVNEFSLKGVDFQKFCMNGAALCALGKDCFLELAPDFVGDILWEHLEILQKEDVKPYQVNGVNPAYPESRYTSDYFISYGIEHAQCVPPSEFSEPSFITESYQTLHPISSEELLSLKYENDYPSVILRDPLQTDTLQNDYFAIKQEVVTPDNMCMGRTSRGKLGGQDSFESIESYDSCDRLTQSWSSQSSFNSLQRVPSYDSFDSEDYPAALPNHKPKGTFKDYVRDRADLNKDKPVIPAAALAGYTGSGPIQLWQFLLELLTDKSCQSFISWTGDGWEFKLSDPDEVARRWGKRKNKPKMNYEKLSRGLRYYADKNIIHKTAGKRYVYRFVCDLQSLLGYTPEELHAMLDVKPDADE"}
{"Sequence": "ACGCCAAA", "E-score": 0.3}
{"Sequence": "CAGCGGCA", "E-score": 0.25}
{"Sequence": "GGATGTAA", "E-score": 0.357}
{"Sequence": "GTTTGACA", "E-score": 0.329}
{"Sequence": "CGTACATA", "E-score": 0.254}
{"Sequence": "ATTTGTAC", "E-score": 0.261}
{"Sequence": "ACGTTGTC", "E-score": 0.257}
{"Sequence": "GCTGACAA", "E-score": 0.282}
{"Sequence": "CCCTCCCA", "E-score": 0.311}
{"Sequence": "CAGTTGCA", "E-score": 0.334}
{"Sequence": "AGTGTTTG", "E-score": 0.3}
{"Sequence": "AATTGCCA", "E-score": 0.353}
{"Sequence": "AATTTGCC", "E-score": 0.268}
{"data": "Mixed results"}
{"Molecule": "PhoQ, residues 284 288 289 292 302 303 ALSMDL", "target": "PhoP, residues 12 14 15 18 19 NHTVL (Escherichia coli, UniProt P23836)", "test": "Sort-seq, measured: YFP reporter", "test system": "E. coli", "setting": "PhoQ-PhoP variant library, added: 10 µM Mg2+", "how to read": "baseline: high Mg2+ state, higher = stronger signaling", "quantity": "fold induction", "result": 5.2}
{"note": "Some of these lines once more (sample 2):"}
{"Substitution": "STTRRRLFVENDL [S13L]", "normalised enrichment score": 0.64}
{"Substitution": "STTRIRLFVENDS [R5I]", "normalised enrichment score": 0.378}
{"Substitution": "STTRRRLFDENDS [V9D]", "normalised enrichment score": 0.921}
{"Substitution": "STTRRRLFGENDS [V9G]", "normalised enrichment score": 0.24}
{"Substitution": "STTRRRLFVEFDS [N11F]", "normalised enrichment score": 0.753}
{"Substitution": "STTRERLFVENDS [R5E]", "normalised enrichment score": 0.0517}
